Measurements from different studies.
Each line is one published result; not all experiments were run side by side. ± marks the error that the study gave.
Sequence of UniProt P29323 (whole entry, looked up): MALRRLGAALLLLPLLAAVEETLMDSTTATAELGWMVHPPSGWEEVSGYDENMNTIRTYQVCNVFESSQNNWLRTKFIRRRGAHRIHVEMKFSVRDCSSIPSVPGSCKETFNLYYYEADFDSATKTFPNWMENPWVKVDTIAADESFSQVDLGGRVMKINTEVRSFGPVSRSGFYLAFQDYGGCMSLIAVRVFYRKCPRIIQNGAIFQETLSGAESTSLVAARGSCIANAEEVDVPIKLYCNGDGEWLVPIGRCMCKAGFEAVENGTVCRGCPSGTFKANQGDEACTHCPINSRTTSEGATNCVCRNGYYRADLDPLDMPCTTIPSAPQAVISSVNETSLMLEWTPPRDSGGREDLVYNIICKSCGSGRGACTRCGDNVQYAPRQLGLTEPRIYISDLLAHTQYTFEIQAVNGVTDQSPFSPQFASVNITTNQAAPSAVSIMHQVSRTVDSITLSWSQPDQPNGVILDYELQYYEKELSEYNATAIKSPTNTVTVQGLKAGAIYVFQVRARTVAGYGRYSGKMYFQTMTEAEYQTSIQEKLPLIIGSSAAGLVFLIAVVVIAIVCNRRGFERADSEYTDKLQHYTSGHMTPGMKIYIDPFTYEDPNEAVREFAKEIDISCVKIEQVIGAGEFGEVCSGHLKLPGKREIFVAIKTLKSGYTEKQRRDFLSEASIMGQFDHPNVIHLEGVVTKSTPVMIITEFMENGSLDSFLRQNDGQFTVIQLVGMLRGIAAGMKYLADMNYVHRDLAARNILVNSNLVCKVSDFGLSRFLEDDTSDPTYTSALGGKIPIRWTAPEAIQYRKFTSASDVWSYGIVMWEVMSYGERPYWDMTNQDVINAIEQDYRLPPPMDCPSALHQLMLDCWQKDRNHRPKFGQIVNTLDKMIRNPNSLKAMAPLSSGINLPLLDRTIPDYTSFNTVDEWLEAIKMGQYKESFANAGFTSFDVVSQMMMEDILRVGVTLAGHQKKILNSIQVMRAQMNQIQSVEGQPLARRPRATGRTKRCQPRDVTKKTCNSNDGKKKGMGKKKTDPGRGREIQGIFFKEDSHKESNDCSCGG

Compound	target or system	assay	system	setting	how to read	endpoint	result
CC[C@H](C)[C@H](NC(=O)[C@@H](Cc1c[nH]c2ccccc12)NC(=O)[C@@H]1CCCN1C(=O)[C@H](CCCCN)NC(=O)[C@H](CCCCN)NC(=O)CCNC(=O)CCNC(=O)CN1CCN(CC(=O)O)CCN(CC(=O)O)CCN(CC(=O)O)CC1)C(=O)N[C@@H](C[Si](C)(C)C)C(=O)O [gallium-68 labelled]	–	–	nude mouse HT-29 xenograft, colon	90 min	–	tissue uptake	0.45 ± 0.33 %ID/g
O=C1NC2(CC2)COc2ncc(F)cc2[C@H]2COCCN2c2ccn3ncc1c3n2	–	–	Sprague-Dawley rat, female, thymus	oral, 10 mg/kg/day, 4 weeks dosing, end of recovery	–	organ-to-brain weight ratio	20.6 ± 5.24%
CC[C@H](C)[C@H](NC(=O)[C@H](CCCNC(=N)N)NC(=O)[C@H](CCCCN)NC(=O)[C@H](Cc1ccc(O)cc1)NC(=O)[C@H](CC(=O)O)NC(=O)[C@H](C)NC(=O)CNC(=O)CCOCCOCCOCCNC(=O)CN1CCN(CC(=O)O)CCN(CC(=O)O)CCN(CC(=O)O)CC1)C(=O)N[C@H](C(=O)N[C@@H](CC(C)C)C(=O)N[C@@H](CCCCN)C(=O)N[C@H](C(=O)N[C@@H](CC(N)=O)C(N)=O)C(C)C)[C@@H](C)O [copper-64 labelled]	–	ex vivo gamma counting	C57BL/6J male mice, B16-F10 tumour, blood	intravenous, 1.85 MBq, 100 min	–	tissue uptake	0.32 ± 0.081 %ID/g
CN1Cc2cc(Cl)ccc2-n2c(nnc2C2CCN(c3cccc([18F])n3)CC2)C1	–	–	C57BL/6 mouse male, liver	intravenous, 3.7 MBq, 5 min	–	tissue uptake	26.4 ± 3.27 %ID/g
C[C@H](O)[C@@H](NC(=O)[C@H]1CCCN1C(=O)[C@@H](CCCCN)NC(=O)[C@@H](CO)NC(=O)[C@@H](Cc1ccc(O)cc1)NC(=O)[C@@H](CC(N)=O)NC(=O)CCOCCOCCOCCNC(=O)CN1CCN(CC(=O)O)CCN(CC(=O)O)CCN(CC(=O)O)CC1)C(=O)N[C@H](CC(=O)O)C(=O)N[C@H](CCCNC(=N)N)C(=O)N[C@H](CCC(N)=O)C(=O)N[C@H](Cc1ccc(O)cc1)C(=O)N[C@H](Cc1c[nH]cn1)C(=O)N[C@H](Cc1ccccc1)C(N)=O [copper-64 labelled]	–	–	C57BL/6J mice, thymus	intravenous, 1.85 MBq, 1 h, radiolabelled	–	tissue uptake	0.17 ± 0.01 %ID/g
CC(C)(C)C(=O)OCOP(=O)(OCOC(=O)C(C)(C)C)C1CCCN(O)C1=O (stereo not drawn)	ACHN	–	–	–	–	log GI50	-6.47 log M
CC[C@H](C)[C@H](NC(=O)[C@H](CCCCN)NC(=O)CNC(=O)[C@H](CC(C)C)NC(=O)[C@H](Cc1ccccc1)NC(=O)[C@H](CCCCN)NC(=O)[C@H](CO)NC(=O)[C@H](Cc1ccccc1)NC(=O)[C@H](Cc1c[nH]c2ccccc12)NC(=O)[C@H](CCC(N)=O)NC(=O)[C@@H](NC(=O)[C@H](Cc1ccccc1)NC(=O)CCCCCNC(=O)CN1CCN(CC(=O)O)CCN(CC(=O)O)CCN(CC(=O)O)CC1)C(C)C)C(=O)N[C@@H](CCC(=O)O)C(=O)N1CCC[C@H]1C(=O)N[C@@H](CC(=O)O)C(=O)N[C@H](C(=O)N[C@@H](CO)C(=O)N[C@@H](CCC(N)=O)C(=O)N[C@H](C(=O)N[C@@H](CCC(N)=O)C(=O)N[C@@H](CC(=O)O)C(=O)N1CCC[C@H]1C(=O)N[C@@H](CC(N)=O)C(=O)N[C@@H](CC(=O)O)C(=O)N[C@@H](CCC(N)=O)C(=O)N[C@@H](Cc1ccc(O)cc1)C(=O)N[C@@H](CCC(=O)O)C(=O)N1CCC[C@H]1C(=O)N[C@@H](Cc1ccccc1)C(=O)O)C(C)C)C(C)C [copper-64 labelled]	–	–	BALB/c mice, male, CT26 tumour-bearing, stomach	2 h, vehicle-treated	–	tissue uptake	1.68 ± 0.9 %ID/g
COc1ccccc1-c1n[nH]c2nc(NC3CCN(C(=O)Cc4ccc(F)cc4F)CC3)ncc12	–	bead binding, competition bead pull-down, item: LINJ.35.5450	Leishmania donovani axenic amastigote extract	10 µM	baseline: vehicle	relative abundance	1.06
CC[C@H](C)[C@H](NC(=O)[C@H](CCCNC(=N)N)NC(=O)[C@H](CCCCN)NC(=O)[C@H](Cc1ccc(O)cc1)NC(=O)[C@H](CC(=O)O)NC(=O)[C@H](C)NC(=O)CNC(=O)CCOCCOCCOCCNC(=O)CN1CCN(CC(=O)O)CCN(CC(=O)O)CCN(CC(=O)O)CC1)C(=O)N[C@H](C(=O)N[C@H](C(=O)N[C@@H](CCCCN)C(=O)N[C@H](C(=O)N[C@@H](CC(N)=O)C(N)=O)C(C)C)C(C)C)[C@@H](C)O [copper-64 labelled]	–	ex vivo gamma counting	C57BL/6J male mice, B16-F10 tumour, heart	intravenous, 1.85 MBq, 40 min	–	tissue uptake	0.795 ± 0.016 %ID/g
CSCC[C@H](NC(=O)CNC(=O)[C@H](CCCCN)NC(=O)[C@H](CC(C)C)NC(=O)[C@@H]1CCCN1C(=O)[C@H](CO)NC(=O)[C@H](Cc1c[nH]cn1)NC(=O)[C@H](Cc1c[nH]c2ccccc12)NC(=O)[C@H](CCCNC(=N)N)NC(=O)[C@H](CC(C)C)NC(=O)[C@H](CCCNC(=N)N)NC(=O)[C@H](Cc1c[nH]c2ccccc12)NC(=O)[C@H](CS)NC(=O)CCCCCNC(=O)CN1CCN(CC(=O)O)CCN(CC(=O)O)CCN(CC(=O)O)CC1)C(=O)O [copper-64 labelled]	–	ex vivo biodistribution	male C57BL/6J mice, muscle	intravenous, 1.85 MBq, 2 h, B16-F10 tumour-bearing	–	tissue uptake	0.46 %ID/g
CS(C)(=O)=Nc1ccc(-c2ccc(-c3nc4cc(O[C@@H]5CO[C@H]6[C@@H]5OC[C@H]6O)[nH]c4cc3F)cc2)cc1	EPHB2 (Homo sapiens, UniProt P29323)	enzyme activity, inhibitor	–	10 µM	–	inhibition	9%
CCCC[C@H]1C(=O)N(C)[C@@H](CCCC)C(=O)N[C@@H](CCCNC(=O)CN2CCN(CC(=O)O)CCN(CC(=O)O)CCN(CC(=O)O)CC2)C(=O)N[C@H](C(=O)NCC(N)=O)CSCC(=O)N[C@@H](Cc2ccc(O)cc2)C(=O)N(C)[C@@H](C)C(=O)N[C@@H](CC(N)=O)C(=O)N2CCC[C@H]2C(=O)N[C@@H](Cc2c[nH]cn2)C(=O)N[C@@H](CC(C)C)C(=O)N(C)CC(=O)N[C@@H](Cc2c[nH]c3ccccc23)C(=O)N[C@@H](CO)C(=O)N[C@@H](Cc2c[nH]c3ccccc23)C(=O)N1C [gallium-68 labelled]	–	–	NOD/SCID mice with CHO-hPD-L1 xenograft, liver	120 min post injection	–	tissue uptake	8.22 ± 4.37 %ID/g

A few entries again:
Compound	target or system	assay	system	setting	how to read	endpoint	result
CC[C@H](C)[C@H](NC(=O)[C@H](CCCNC(=N)N)NC(=O)[C@H](CCCCN)NC(=O)[C@H](Cc1ccc(O)cc1)NC(=O)[C@H](CC(=O)O)NC(=O)[C@H](C)NC(=O)CNC(=O)CCOCCOCCOCCNC(=O)CN1CCN(CC(=O)O)CCN(CC(=O)O)CCN(CC(=O)O)CC1)C(=O)N[C@H](C(=O)N[C@@H](CC(C)C)C(=O)N[C@@H](CCCCN)C(=O)N[C@H](C(=O)N[C@@H](CC(N)=O)C(N)=O)C(C)C)[C@@H](C)O [copper-64 labelled]	–	ex vivo gamma counting	C57BL/6J male mice, B16-F10 tumour, blood	intravenous, 1.85 MBq, 100 min	–	tissue uptake	0.32 ± 0.081 %ID/g
